Measured values from different studies.
Parts stem from different laboratories: compare values within a part only. Positions count from the first letter of the parent shown.

Block 1
Target: Centromere-binding protein 1, full length, N-terminal tag (CBF1, Saccharomyces cerevisiae, UniProt P17106, residues 1-351)
UniProt P17106, sequence (whole entry, looked up): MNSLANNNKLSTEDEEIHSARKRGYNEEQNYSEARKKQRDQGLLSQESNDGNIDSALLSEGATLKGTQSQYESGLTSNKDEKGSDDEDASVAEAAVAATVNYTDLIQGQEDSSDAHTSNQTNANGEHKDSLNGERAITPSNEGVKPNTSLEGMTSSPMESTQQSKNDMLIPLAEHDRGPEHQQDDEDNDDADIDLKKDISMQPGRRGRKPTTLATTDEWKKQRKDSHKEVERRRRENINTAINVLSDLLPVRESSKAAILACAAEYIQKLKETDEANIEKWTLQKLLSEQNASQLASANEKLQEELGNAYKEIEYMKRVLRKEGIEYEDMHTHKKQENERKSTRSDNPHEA
Method: protein-binding microarray
Molecule type: double-stranded DNA, one strand shown
Matrix: in vitro
Tested at: 0.8 µM
Setting: whole 60-bp probe, no competitor
Direction: higher = stronger binding
| Sequence | fluorescence intensity [a.u.] |
| --- | --- |
| CTATGGCTTGATGACCACATGGCTATGATTTTATTCGTCTTGATTCGCTTGACGCTGCTG | 723 |
| CTACAGAGCCCAATAAACGTGGTACTTGTCGAGTTCGTCTTGATTCGCTTGACGCTGCTG | 545 |
| GAACATCTATTAAATCTGATGACTGTTTTCTCATAGGTCTTGATTCGCTTGACGCTGCTG | 554 |
| CTATGTACCGGGTGGCACGTCGTGCACAGAATCTTCGTCTTGATTCGCTTGACGCTGCTG | 562 |

Block 2
Target: CCNB2, cyclin fold, Cln2 fusion (human)
Method: yeast growth competition, sequencing
Matrix: yeast
Setting: weak parent motif
Reference: not given
Direction: higher = stronger binding
Starting sequence: CDC25A docking peptide (human); PPHRRRLLFACSP
| Change | normalised enrichment score |
| --- | --- |
| PPHRRRLGFACSP [L8G] | 0.381 |
| PPHRRRLLFHCSP [A10H] | 0.412 |
| QPHRRRLLFACSP [P1Q] | 0.51 |
| PPHNRRLLFACSP [R4N] | 0.755 |

Block 3
Target: ABI1, truncated, D143A, DHFR fusion (Arabidopsis thaliana)
Method: DHFR PCA, deep sequencing
Matrix: yeast
Setting: methotrexate growth selection, single substitutions
Together with: (+)-ABA 710 µM
Reference: wild-type fitted maximum
Direction: higher = stronger binding
Starting sequence: PYL1, truncated, DHFR fusion (Arabidopsis thaliana); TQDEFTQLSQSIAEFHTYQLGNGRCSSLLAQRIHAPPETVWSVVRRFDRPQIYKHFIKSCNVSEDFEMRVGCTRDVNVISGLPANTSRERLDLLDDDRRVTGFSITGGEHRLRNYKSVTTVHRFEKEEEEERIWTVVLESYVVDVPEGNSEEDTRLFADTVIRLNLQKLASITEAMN; partner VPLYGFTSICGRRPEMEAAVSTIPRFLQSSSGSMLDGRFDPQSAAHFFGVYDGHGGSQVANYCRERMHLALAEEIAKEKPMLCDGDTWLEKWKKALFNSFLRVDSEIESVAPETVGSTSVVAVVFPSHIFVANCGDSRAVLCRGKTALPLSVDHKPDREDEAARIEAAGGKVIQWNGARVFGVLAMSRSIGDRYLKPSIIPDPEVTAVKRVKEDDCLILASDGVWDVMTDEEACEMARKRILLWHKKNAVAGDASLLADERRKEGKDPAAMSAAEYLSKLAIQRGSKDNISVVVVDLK
| Change | relative binding score [%] |
| --- | --- |
| R123L | 103 |
| S42L | 94 |
| D144Y | 65 |
| T106D | 94.9 |

Mixed results
| Molecule | target | test | system | setting | how to read | measurement | value |
| --- | --- | --- | --- | --- | --- | --- | --- |
| PhoQ, residues 284 288 289 292 302 303 SSTLSG | PhoP, residues 12 14 15 18 19 DLLYY (Escherichia coli, UniProt P23836) | Sort-seq, measured: YFP reporter | E. coli | PhoQ-PhoP variant library, together with: 10 µM Mg2+ | reference: high Mg2+ state, higher = stronger signaling | fold induction | 0.798 |
